Experimental data of several laboratories.
Lines come from different studies, so protocols differ. ± marks the error that the study gave.
CHRM3: Muscarinic acetylcholine receptor M3 (CHRM3, Homo sapiens, UniProt P20309)
Chain of UniProt P20309 (whole entry, looked up): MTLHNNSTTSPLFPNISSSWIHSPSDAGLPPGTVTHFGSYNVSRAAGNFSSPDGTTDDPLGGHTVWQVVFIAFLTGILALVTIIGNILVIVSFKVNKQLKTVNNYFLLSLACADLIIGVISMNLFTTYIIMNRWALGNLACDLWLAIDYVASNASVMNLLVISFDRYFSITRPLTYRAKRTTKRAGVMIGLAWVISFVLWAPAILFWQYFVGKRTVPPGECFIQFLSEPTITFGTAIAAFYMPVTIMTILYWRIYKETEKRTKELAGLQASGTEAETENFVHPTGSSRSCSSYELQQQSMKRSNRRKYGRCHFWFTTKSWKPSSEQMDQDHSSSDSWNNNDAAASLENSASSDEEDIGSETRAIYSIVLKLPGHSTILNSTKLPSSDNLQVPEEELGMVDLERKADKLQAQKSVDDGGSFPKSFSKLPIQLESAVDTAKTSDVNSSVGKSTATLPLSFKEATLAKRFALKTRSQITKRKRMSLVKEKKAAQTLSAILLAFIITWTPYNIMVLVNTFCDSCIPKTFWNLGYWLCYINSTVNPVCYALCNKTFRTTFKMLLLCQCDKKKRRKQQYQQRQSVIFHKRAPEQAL
Drd2: D(2) dopamine receptor (Drd2, Rattus norvegicus, UniProt P61169)
Chain of UniProt P61169 (whole entry, looked up): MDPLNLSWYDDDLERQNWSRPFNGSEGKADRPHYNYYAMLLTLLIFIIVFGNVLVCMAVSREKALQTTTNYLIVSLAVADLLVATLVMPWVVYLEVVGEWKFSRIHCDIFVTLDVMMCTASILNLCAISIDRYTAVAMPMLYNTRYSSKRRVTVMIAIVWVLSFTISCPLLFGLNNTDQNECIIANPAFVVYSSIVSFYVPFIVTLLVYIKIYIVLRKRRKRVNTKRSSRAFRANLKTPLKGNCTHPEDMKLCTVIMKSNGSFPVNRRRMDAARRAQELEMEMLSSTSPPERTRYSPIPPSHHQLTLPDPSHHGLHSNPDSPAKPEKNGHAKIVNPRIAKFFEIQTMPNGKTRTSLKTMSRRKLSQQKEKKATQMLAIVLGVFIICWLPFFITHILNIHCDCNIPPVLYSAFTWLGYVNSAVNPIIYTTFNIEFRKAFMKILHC
CHRM5: Muscarinic acetylcholine receptor M5 (CHRM5, Homo sapiens, UniProt P08912)
Chain of UniProt P08912 (whole entry, looked up): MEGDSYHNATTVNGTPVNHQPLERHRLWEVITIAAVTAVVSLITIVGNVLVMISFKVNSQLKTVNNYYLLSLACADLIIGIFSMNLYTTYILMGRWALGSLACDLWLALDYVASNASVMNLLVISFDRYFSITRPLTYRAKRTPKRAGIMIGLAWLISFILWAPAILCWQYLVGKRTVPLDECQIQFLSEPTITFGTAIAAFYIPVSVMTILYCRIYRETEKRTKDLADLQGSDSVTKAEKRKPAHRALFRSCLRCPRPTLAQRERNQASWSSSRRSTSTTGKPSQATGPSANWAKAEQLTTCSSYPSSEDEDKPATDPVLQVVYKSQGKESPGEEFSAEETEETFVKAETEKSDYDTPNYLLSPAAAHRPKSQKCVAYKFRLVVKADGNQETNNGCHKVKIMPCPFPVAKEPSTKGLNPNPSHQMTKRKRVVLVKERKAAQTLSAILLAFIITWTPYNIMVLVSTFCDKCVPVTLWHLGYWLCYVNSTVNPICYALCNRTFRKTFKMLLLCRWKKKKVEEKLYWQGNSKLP
CHRM1: Muscarinic acetylcholine receptor M1 (CHRM1, Homo sapiens, UniProt P11229)
Chain of UniProt P11229 (whole entry, looked up): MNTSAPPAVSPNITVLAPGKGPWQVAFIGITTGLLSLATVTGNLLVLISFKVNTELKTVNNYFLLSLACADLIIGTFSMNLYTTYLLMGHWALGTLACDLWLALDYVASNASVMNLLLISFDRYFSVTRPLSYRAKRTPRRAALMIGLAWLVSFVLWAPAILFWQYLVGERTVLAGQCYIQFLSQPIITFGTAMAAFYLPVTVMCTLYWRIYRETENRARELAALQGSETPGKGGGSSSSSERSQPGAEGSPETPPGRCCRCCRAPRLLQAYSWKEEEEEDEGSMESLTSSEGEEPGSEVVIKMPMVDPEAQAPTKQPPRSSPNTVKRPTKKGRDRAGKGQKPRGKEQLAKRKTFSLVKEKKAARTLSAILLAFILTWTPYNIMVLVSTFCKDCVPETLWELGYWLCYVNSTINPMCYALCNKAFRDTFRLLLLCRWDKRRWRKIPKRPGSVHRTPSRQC
Hypoxanthine-guanine phosphoribosyltransferase: Hypoxanthine-guanine phosphoribosyltransferase (Trypanosoma cruzi, UniProt Q4DGA3)
CASP3: Caspase-3 (CASP3, Homo sapiens, UniProt P42574)
Chain of UniProt P42574 (whole entry, looked up): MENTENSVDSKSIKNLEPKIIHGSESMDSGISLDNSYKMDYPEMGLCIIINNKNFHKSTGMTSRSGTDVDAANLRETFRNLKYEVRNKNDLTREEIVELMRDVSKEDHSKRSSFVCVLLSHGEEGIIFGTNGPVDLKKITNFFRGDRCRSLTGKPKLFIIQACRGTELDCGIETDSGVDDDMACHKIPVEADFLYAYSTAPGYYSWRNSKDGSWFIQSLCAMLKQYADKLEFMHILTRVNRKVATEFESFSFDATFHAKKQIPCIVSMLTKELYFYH
SLC10A2: Ileal sodium/bile acid cotransporter (SLC10A2, Homo sapiens, UniProt Q12908)
Chain of UniProt Q12908 (whole entry, looked up): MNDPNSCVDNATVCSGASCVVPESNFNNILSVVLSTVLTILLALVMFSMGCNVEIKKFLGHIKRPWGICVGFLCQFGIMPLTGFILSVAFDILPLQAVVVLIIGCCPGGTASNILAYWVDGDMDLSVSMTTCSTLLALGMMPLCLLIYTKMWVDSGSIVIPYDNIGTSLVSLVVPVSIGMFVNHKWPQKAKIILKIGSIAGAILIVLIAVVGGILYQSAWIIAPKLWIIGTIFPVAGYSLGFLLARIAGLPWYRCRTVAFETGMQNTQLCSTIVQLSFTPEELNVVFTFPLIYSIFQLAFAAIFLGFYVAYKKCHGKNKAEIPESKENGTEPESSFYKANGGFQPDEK
GBA3: Cytosolic beta-glucosidase (GBA3, Homo sapiens, UniProt Q9H227)
Chain of UniProt Q9H227 (whole entry, looked up): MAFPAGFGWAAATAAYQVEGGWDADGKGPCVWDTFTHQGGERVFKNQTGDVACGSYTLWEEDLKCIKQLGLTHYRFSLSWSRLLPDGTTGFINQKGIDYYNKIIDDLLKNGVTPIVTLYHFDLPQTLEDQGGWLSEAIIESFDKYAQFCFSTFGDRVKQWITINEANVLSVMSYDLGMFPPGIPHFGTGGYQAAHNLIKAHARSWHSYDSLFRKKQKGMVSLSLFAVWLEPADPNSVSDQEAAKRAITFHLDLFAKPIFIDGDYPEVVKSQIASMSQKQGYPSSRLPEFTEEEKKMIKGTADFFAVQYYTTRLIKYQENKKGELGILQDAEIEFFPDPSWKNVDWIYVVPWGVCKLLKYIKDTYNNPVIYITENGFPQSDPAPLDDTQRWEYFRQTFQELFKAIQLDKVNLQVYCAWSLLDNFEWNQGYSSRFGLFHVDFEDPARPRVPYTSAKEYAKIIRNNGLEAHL
Chain of UniProt P18031 (whole entry, looked up): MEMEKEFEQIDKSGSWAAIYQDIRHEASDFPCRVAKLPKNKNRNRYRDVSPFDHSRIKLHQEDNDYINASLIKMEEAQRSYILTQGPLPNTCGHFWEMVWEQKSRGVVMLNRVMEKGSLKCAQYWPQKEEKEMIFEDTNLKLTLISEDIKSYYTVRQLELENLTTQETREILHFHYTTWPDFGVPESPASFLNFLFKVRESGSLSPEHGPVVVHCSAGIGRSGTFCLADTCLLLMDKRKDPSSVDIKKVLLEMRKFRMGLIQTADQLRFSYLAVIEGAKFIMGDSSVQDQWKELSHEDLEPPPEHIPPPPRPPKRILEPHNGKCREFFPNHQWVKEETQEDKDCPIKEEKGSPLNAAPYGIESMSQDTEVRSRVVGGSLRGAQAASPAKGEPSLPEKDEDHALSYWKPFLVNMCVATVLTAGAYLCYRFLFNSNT
Chain of UniProt Q01814 (whole entry, looked up): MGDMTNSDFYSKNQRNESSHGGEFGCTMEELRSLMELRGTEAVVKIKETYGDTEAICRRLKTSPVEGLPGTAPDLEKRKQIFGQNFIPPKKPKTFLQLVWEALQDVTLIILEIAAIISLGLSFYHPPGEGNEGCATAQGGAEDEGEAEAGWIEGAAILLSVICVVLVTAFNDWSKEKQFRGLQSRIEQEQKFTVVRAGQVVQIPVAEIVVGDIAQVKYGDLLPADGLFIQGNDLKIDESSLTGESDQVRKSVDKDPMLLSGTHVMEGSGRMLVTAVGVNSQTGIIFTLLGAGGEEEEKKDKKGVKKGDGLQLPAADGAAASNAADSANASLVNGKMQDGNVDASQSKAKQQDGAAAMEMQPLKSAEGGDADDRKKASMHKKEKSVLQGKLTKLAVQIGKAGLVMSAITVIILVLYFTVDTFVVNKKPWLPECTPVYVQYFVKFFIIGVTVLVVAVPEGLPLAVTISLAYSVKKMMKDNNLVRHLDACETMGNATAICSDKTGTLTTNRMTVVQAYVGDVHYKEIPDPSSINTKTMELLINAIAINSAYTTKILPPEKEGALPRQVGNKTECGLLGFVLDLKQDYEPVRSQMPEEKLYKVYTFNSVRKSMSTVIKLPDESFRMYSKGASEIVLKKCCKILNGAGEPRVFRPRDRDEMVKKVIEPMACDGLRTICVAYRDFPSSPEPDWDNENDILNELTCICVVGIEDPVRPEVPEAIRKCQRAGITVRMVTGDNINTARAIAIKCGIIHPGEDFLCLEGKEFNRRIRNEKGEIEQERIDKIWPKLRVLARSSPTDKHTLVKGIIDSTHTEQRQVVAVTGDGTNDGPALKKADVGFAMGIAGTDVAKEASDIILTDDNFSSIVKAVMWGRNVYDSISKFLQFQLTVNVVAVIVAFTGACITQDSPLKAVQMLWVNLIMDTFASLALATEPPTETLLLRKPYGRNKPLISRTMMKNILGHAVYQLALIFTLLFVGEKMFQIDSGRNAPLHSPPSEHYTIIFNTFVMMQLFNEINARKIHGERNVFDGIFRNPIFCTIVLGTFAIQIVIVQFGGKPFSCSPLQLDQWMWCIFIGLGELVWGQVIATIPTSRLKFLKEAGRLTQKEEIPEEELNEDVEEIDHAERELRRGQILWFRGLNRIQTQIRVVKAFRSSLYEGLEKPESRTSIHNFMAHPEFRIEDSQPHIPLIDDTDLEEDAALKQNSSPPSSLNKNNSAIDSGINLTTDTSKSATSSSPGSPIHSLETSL

Compound = O=C(OC1CCN(CCOCCOCCN2CCC(OC(=O)C(c3ccccc3)c3ccccc3)CC2)CC1)C(c1ccccc1)c1ccccc1; target = CHRM3; test = ligand displacement, radioligand; Ki = 2.29 µM
Compound = COc1cc(CN2CCCC2)ccc1OCCN1CCN(c2cccc3sccc23)CC1; target = Drd2; test = cell-free assay, radioligand; Ki = 0.0825 µM
Compound = CNC(=O)c1ccc(-c2cccc3c2OC(CN)C3)cc1 (stereo not shown); target = ADRB2 (Homo sapiens, UniProt P07550); test = binding, fluorescent ligand displacement; test system = SNAP-tagged receptor HEK membranes; setting = together with: 50 nM propranolol-green; Ki = 1.26 µM
Compound = CCC(=O)NCc1cc(C(=O)NCCCC(=O)NCCCCCOc2nsnc2C2=CCCN(C)C2)cc(C(=O)NCCN2CCN(CCCCC3CCN(CC(=O)N4c5ccccc5NC(=O)c5ccccc54)CC3)CC2)c1; target = CHRM5; test = ligand displacement, radioligand; Ki = 0.00427 µM
Compound = CCOC(=O)[C@](CC)(CCCSCCOCCOCCNC(=O)c1ccc(C(=O)[O-])c(C2=C3C=CC(=[N+](C)C)C=C3[Si](C)(C)c3cc(N(C)C)ccc32)c1)NC(=O)c1ccc(C2CC2)c(Cc2ccc(F)cc2)n1; target = Cnr1 (Mus musculus, UniProt P47746); test = ligand displacement, radioligand; setting = cell membranes; Ki = 1.89 µM
Compound = NCc1cc(C(=O)NCCN2CCN(CCCCC3CCN(CC(=O)N4c5ccccc5NC(=O)c5ccccc54)CC3)CC2)cc(C(=O)NCCN2CCN(CCOC(=O)C3c4ccccc4Oc4ccccc43)CC2)c1; target = CHRM1; test = ligand displacement, radioligand; Ki = 0.0038 µM
Compound = Fc1cc(CN2CCOCC2)ccc1OCCCN1CCN(c2cccc3sccc23)CC1; target = Drd2; test = cell-free assay, radioligand; Ki = 0.0785 µM
Compound = CC(C)C[C@H](NC(=O)[C@H](CC(C)C)NC(=O)[C@H](Cc1c[nH]cn1)NC(=O)[C@H](CC(C)C)NC(=O)[C@@H](NC(=O)[C@H](CCC(=O)O)NC(=O)[C@H](CO)NC(=O)[C@H](Cc1c[nH]c2ccccc12)NC(=O)[C@H](C)NC(=O)[C@@H](N)[C@@H](C)O)C(C)C)C(=O)N[C@@H](CO)C(=O)N[C@@H](CCCNC(=N)N)C(=O)NCC(=O)NCC(=O)NCC(=O)N[C@@H](CO)C(=O)N[C@@H](CCCCN)C(N)=O; target = ATP2B2 (Homo sapiens, UniProt Q01814); test = Ca2+-Mg2+-ATPase activity, inhibitor; test system = Sf9 cell microsomes; Ki = 167 ± 67 µM
Compound = O=C(COc1ccc2ccccc2c1)NCc1ccc(OP(=O)(O)O)c(OP(=O)(O)O)c1; target = Signal transducer and activator of transcription 5A, SH2 (Homo sapiens, UniProt P42229); test = ligand displacement, FP; Ki = 9.3 µM
Compound = O=C1Nc2ccccc2N(C(=O)CN2CCC(CCCCN3CCC(N4CCC(n5c(=O)[nH]c6ccccc65)CC4)CC3)CC2)c2ccccc21; target = CHRM5; test = ligand displacement, radioligand; Ki = 0.0813 µM
Compound = O=c1[nH]cnc2c(CNCC(O)CP(=O)(O)O)c[nH]c12 (stereo not shown); target = Hypoxanthine-guanine phosphoribosyltransferase; Ki = 0.17 ± 0.02 µM
Compound = CC(=O)N[C@H](C(=O)N[C@H](C(=O)N[C@@H](CCCN)C(=O)N[C@H](C=O)CC(=O)O)C(C)C)[C@@H](C)O; target = CASP3; test = enzyme activity, inhibitor, fluorescence; setting = pH 7; Ki = 17 µM
Compound = CCCCOc1ccc(C(=O)OCCN2CC=CCC2)cc1; target = CHRM1; test = ligand displacement, radioligand; setting = cell membranes; Ki = 6.46 µM
Compound = COC(=O)[C@H](CCCCNCCCCN(O)C(=O)/C=C/C(=O)O)NC(=O)OCc1ccccc1; target = KDM2A (Homo sapiens, UniProt Q9Y2K7); test = ligand displacement, FP; Ki = 0.37 µM
Compound = CNC(=O)C1CCN(c2cc(C)c(F)cc2NC(=O)c2ccc(-c3cc(O)ccc3C)c(C)c2)CC1; target = FGR (Homo sapiens, UniProt P09769); test = cell-free assay, TR-FRET; Ki = 0.0018 µM
Compound = C[C@H](CCC(=O)N[C@@H](CCC(=O)Nc1cncc(F)c1)C(=O)O)[C@H]1CC[C@H]2[C@@H]3[C@H](O)C[C@@H]4C[C@H](O)CC[C@]4(C)[C@H]3CC[C@]12C; target = SLC10A2; test = taurocholate uptake, inhibitor; test system = ASBT-MDCK; setting = 10 min, together with: taurocholate 2.5 µM; Ki = 6.84 µM
Compound = CC(C)(C)COCCCCCN1C[C@H](O)[C@@H](O)[C@H](O)[C@H]1CO; target = GBA3; test = enzyme activity, inhibitor; Ki = 27.6 µM
Compound = NC1CN(CCCCC2CCN(CC(=O)N3c4ccccc4NC(=O)c4ccccc43)CC2)CCN(CC(=O)N2CCC(N3CCC(n4c(=O)[nH]c5ccccc54)CC3)CC2)C1 (stereo not shown); target = CHRM1; test = ligand displacement, radioligand; Ki = 0.00427 µM
Compound = C[C@H](CCC(=O)OCc1ccccc1)[C@H]1CC[C@H]2[C@@H]3[C@H](O)C[C@H]4C[C@H](OC(=O)CCC(=O)O)CC[C@]4(C)[C@H]3CC[C@]12C; target = SLC10A2; test = taurocholate uptake, inhibitor; test system = MDCK expressing SLC10A2; Ki = < 25 µM
Compound = CC(CCC(=O)NC(CCC(=O)Nc1ccc(Br)nc1)C(=O)O)C1CCC2C3C(O)CC4CC(O)CCC4(C)C3CCC12C (stereo not shown); target = SLC10A2; test = taurocholate uptake, inhibitor; test system = ASBT-MDCK; setting = 10 min, together with: taurocholate 2.5 µM; Ki = 4.96 µM
Compound = C=C1CCC(O)C(C)=CCC2C1CC2(C)C(=O)C=CC(C)(C)O (stereo not shown); target = PNLIP (Sus scrofa, UniProt P00591); test = enzyme activity, inhibitor; Ki = 84.2 µM
Compound = Nc1ncnc2c1ncn2[C@@H]1O[C@H](C(=O)NC2COC2)[C@@H](O)[C@H]1O; target = ADORA3 (Homo sapiens, UniProt P0DMS8); test = ligand displacement, radioligand; setting = cell membranes; Ki = 0.3 µM
Compound = Cc1cc(OCCCN2CCN(c3cccc4sccc34)CC2)ccc1CN1CCCC1; target = Drd2; test = cell-free assay, radioligand; Ki = 0.0956 µM
Compound = CCC(=O)NC1CN(CCCCC2CCN(CC(=O)N3c4ccccc4NC(=O)c4ccccc43)CC2)CCN(CCCOc2nsnc2C2=CCCN(C)C2)C1 (stereo not shown); target = CHRM3; test = ligand displacement, radioligand; Ki = 0.145 µM
Compound = C[C@@H]1O[C@@H](O[C@@H]2C(=O)c3c(O)cc(O)cc3O[C@@H]2c2ccc(O)cc2)[C@H](O)[C@H](O)[C@H]1O; target = PTPN1 (Homo sapiens, UniProt P18031); test = enzyme activity, inhibitor; Ki = 3.2 µM
Compound = OC[C@H]1[C@@H](O)[C@H](O)[C@@H](O)CN1CCCCCOCC12CC3CC(CC(C3)C1)C2; target = GBA3; test = enzyme activity, inhibitor; Ki = 66.1 µM
Compound = N#Cc1c(N)nc(SCc2ncc[nH]2)c(C#N)c1-c1ccc(O)cc1; target = Adenosine receptor A2a, Δ40 C-terminal truncation (ADORA2A, Homo sapiens, UniProt P29274); test = binding; Ki = 0.018 µM
Compound = CN1CCC=C(c2nsnc2OCCCCCNC(=O)CCCCCCCCC(=O)NCCCCCOc2nsnc2C2=CCCN(C)C2)C1; target = CHRM1; test = ligand displacement, radioligand; Ki = 0.00389 µM
Compound = O=c1[nH]cnc2c(CNCCCP(=O)(O)O)c[nH]c12; target = Hypoxanthine-guanine phosphoribosyltransferase; Ki = 0.71 ± 0.17 µM
Compound = COc1cccc(CNC[C@@H](O)[C@H](Cc2ccccc2)NC(=O)c2cc(C)cc(C(=O)N(C)[C@H](C)c3ccccc3)c2)c1; target = Beta-secretase 1 (BACE1, Homo sapiens, UniProt P56817); Ki = 0.837 ± 0.0251 µM
Compound = COc1ccc(CCCN[C@@H]2CCC[C@H]2CN[C@H]2CCC[C@@H]2CNCCCCN[C@@H]2CCC[C@H]2CN)cc1; target = MAOB (Homo sapiens, UniProt P27338); test = enzyme activity, inhibitor; Ki = > 500 µM
Compound = CN1CCN(CCCCC2CCN(CC(=O)N3c4ccccc4NC(=O)c4ccccc43)CC2)CC(N)C1 (stereo not shown); target = CHRM1; test = ligand displacement, radioligand; Ki = 0.055 µM
Compound = CC(=O)N[C@H](C(=O)N[C@@H](CCCNC(=N)N)C(=O)N[C@H](C=O)CC(=O)O)[C@@H](C)O; target = CASP3; test = enzyme activity, inhibitor, fluorescence; setting = pH 7; Ki = > 100 µM
Compound = O=Cc1ccc(-c2cn([C@@H]3O[C@H](COP(=O)(O)OP(=O)(O)O[C@H]4O[C@H](CO)[C@H](O)[C@H](O)[C@H]4O)[C@@H](O)[C@H]3O)c(=O)[nH]c2=O)s1; target = ABO (Homo sapiens, UniProt P16442, G235S/G268A/L266M/R176G); test = enzyme activity, inhibitor; Ki = 2.4 µM
Compound = CC(C)C[C@@H](C=O)NC(=O)[C@@H]1CCCN1C(=O)[C@H](CCCCN)NC(=O)[C@H](CO)NC(=O)[C@H](CO)NC(=O)OCc1ccccc1; target = Prostate-specific antigen (Homo sapiens, UniProt P07288); test = enzyme activity, inhibitor, fluorescence; setting = pH 7.8; Ki = > 500 µM
Compound = CC(=O)N[C@H](C(=O)N[C@@H](CCCCN)C(=O)N[C@H](C=O)CC(=O)O)C(C)C; target = CASP3; test = enzyme activity, inhibitor, fluorescence; setting = pH 7; Ki = > 100 µM
Compound = CN(CCON=C(c1ccc(C(F)(F)F)cc1)C(F)(F)F)Cc1ccccc1 (mixture of isomers); target = Sigmar1 (Rattus norvegicus, UniProt Q9R0C9); test = binding; Ki = 0.0337 ± 0.00264 µM
Compound = CC(=O)N[C@H](C(=O)N[C@@H](CN)C(=O)N[C@H](C=O)CC(=O)O)C(C)C; target = CASP3; test = enzyme activity, inhibitor, fluorescence; setting = pH 7; Ki = > 100 µM
Compound = CC[C@H](C)[C@H](NC(=O)CN)C(=O)N[C@H](C(=O)N[C@@H](CC(N)=O)C(=O)N[C@H](C(=O)N[C@@H](CC(C)C)C(=O)N[C@@H](CCC(N)=O)C(=O)N[C@@H](CCCCN)C(=O)N[C@@H](Cc1ccc(O)cc1)C(=O)N[C@@H](Cc1ccc(O)cc1)C(=O)N[C@@H](CO)C(=O)N[C@@H](CCCNC(=N)N)C(=O)N[C@H](C(=O)N[C@@H](CCC(N)=O)C(=O)NCC(=O)NCC(=O)N[C@@H](CCC(N)=O)C(=O)N[C@@H](CO)C(=O)N[C@@H](C)C(=O)N[C@H](C(=O)N[C@@H](CC(C)C)C(=O)N[C@@H](CO)C(=O)N[C@@H](CO)C(=O)N[C@@H](CC(C)C)C(=O)N1CCC[C@H]1C(=O)N[C@@H](CCC(N)=O)C(=O)N[C@@H](CCC(=O)O)C(=O)N[C@@H](CCC(=O)O)C(=O)N[C@@H](CCC(N)=O)C(=O)N[C@H](C(=O)NCC(=O)N[C@@H](CCCCN)C(=O)N[C@@H](CO)C(=O)N[C@@H](CO)C(=O)N[C@H](C(=O)N[C@@H](CCCNC(=N)N)C(=O)NCC(=O)N[C@@H](CCCNC(=N)N)C(=O)N[C@@H](CCCCN)C(=O)N[C@@H](CO)C(=O)N[C@@H](CO)C(=O)N[C@@H](CCC(N)=O)C(=O)N[C@@H](CCC(N)=O)C(=O)N[C@@H](CCC(N)=O)C(=O)N[C@@H](CCC(N)=O)C(N)=O)[C@@H](C)O)[C@@H](C)CC)C(C)C)C(C)C)[C@@H](C)O)[C@@H](C)CC; target = MC1R (Homo sapiens, UniProt Q01726); test system = HEK-293T transfected; setting = 2 h, 37 °C, together with: Eu-NDP-MSH; Ki = > 5 µM
Compound = CC(=O)N[C@@H](CCCNC(=N)N)C(=O)N[C@H](C(=O)N[C@H](C=O)CC(=O)O)[C@@H](C)O; target = CASP3; test = enzyme activity, inhibitor, fluorescence; setting = pH 7; Ki = 11 µM
Compound = O=C1NC(Cc2c[nH]c3c(Cl)cccc23)C(=O)N1Cc1ccccc1 (racemic); target = RIPK1 (Homo sapiens, UniProt Q13546); test = binding, fluorescence polarisation competition; setting = together with: fluorescein-necrostatin-1; Ki = 3.4 ± 0.6 µM
Compound = Cc1nc(N=Nc2ccc(S(=O)(=O)O)cc2S(=O)(=O)O)c(COP(=O)(O)O)c(C=O)c1O; target = Ectonucleoside triphosphate diphosphohydrolase 1 (Rattus norvegicus, UniProt P97687); test = enzyme activity, inhibitor; setting = cell membranes; Ki = 46 µM
Compound = CC[C@H](C)[C@H](NC(C)=O)C(=O)N[C@H](C(=O)N[C@H](C(=O)N[C@@H](CCCN)C(=O)N[C@H](C=O)CC(=O)O)C(C)C)[C@@H](C)O; target = CASP3; test = enzyme activity, inhibitor, fluorescence; setting = pH 7; Ki = 2.09 µM
